Results from different studies.
Parts stem from different laboratories: compare values within a part only. Changes are numbered by the printed parent chain.
Sequence of UniProt P08913 (whole entry, looked up): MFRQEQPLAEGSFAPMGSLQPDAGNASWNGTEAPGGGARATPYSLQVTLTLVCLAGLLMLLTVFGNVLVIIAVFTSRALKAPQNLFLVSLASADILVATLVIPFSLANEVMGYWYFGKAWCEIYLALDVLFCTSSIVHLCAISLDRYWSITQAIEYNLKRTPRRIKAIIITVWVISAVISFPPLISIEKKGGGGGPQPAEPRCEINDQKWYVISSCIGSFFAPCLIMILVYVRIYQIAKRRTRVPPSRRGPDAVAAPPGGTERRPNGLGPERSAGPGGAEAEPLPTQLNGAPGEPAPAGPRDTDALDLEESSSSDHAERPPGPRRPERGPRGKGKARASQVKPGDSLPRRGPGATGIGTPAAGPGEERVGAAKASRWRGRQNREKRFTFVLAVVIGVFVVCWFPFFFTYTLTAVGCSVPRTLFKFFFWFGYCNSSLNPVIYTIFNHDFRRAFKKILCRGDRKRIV

Series 1 — technique: aptamer microarray, sandwich; form: DNA with 2'F-ANA; sample: in vitro; tested at: 200 nM; together with: Cy3 exosite-II aptamer, 400 nM; reading: higher = stronger binding; oligonucleotide: GGTTGGTGTGGTTGG
Target: Prothrombin, mature alpha-thrombin (F2, Homo sapiens, UniProt P00734)
Notes: whole 15-mer aptamer, many near background
| Modification | mean fluorescence intensity [a.u.] |
| --- | --- |
| 2'F-ANA at 3 5 8 10 11 12 13 | 58.8 |
| 2'F-ANA at 5 9 12 13 15 | 77.8 |
| 2'F-ANA at 1 3 4 6 8 10 15 | 62.3 |
| 2'F-ANA at 1 6 7 8 11 14 | 58.1 |
| 2'F-ANA at 1 2 4 7 8 9 10 11 12 13 15 | 57.6 |
| 2'F-ANA at 5 6 7 8 9 15 | 78.5 |
| 2'F-ANA at 3 8 12 13 14 15 | 660 |
| 2'F-ANA at 8 10 11 12 14 15 | 98.5 |

Series 2 — Variant: E128M; technique: DHFR PCA, deep sequencing; sample: yeast; reference: wild-type fitted maximum; reading: higher = stronger binding
Target: ABI1, truncated, D143A, DHFR fusion (Arabidopsis thaliana)
Notes: methotrexate growth selection, single substitutions
Parent: PYL1, truncated, DHFR fusion (Arabidopsis thaliana); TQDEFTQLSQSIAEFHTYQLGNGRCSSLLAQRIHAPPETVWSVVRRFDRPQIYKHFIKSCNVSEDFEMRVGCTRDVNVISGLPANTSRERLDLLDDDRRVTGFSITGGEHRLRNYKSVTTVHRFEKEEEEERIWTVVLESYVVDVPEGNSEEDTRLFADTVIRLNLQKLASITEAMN
| setting | relative binding score |
| --- | --- |
| together with: (+)-ABA 0.0091 µM | 14.3% |
| together with: (+)-ABA 710 µM | 103% |
| together with: (+)-ABA 200 µM | 106% |
| together with: (+)-ABA 0.032 µM | 16.9% |
| together with: (+)-ABA 58 µM | 91.5% |
| together with: (+)-ABA 0 µM | 8.16% |

Series 3 — technique: RNA Bind-n-Seq; form: RNA; sample: in vitro; tested at: not given; reference: input RNA pool; reading: higher = stronger binding
Target: RING finger protein unkempt homolog, zinc fingers 1-6, GST-SBP tag (UNK, Homo sapiens, UniProt Q9C0B0, residues 30-357)
Notes: RNA with constant flanks, human and mouse sites, ends assumed
Constant ends, left off below: GGGAGUUCUACAGUCCGACGAUC … CAACAGAGGAUUGAGCAUCA
Construct (chain): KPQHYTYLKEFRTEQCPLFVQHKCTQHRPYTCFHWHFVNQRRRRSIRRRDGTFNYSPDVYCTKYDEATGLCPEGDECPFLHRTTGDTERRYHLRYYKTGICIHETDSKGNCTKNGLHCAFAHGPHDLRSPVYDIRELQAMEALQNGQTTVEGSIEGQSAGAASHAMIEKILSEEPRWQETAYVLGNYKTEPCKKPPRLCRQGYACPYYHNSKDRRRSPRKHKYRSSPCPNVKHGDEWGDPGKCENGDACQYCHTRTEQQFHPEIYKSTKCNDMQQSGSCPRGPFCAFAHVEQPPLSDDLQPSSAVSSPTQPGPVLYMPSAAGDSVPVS
| Oligonucleotide | bound/input enrichment [ratio] |
| --- | --- |
| CCUGAAUUCUUGGUCUAUUUUCCAUUGCUAAAUGAAAUGGCAAAGAAGUACAAUAUGAAACUAGUCUACAAAAAAACAUUUCUGGAAUUCUACGAAGAAAAGAUUAAGAACAAUGAAAAU | 0.328 |
| GACACAAUCAUUAACCAGAAACGUUUCAAUGAUGGAUCUGAUGAAAAGAAGAAGCUGUACUGUAUUUAUGUUGCUAUUGGUCAAAAGAGAUCCACUGUUGCCCAGUUGGUGAAGAGACUU | 0.341 |
| GCACUUCUCAAAUACUGGCCAAAGACUCACAGUCCAAAAGAAGUAAUGUUCUUAAACGAAUUAGAAGAGAUUUUAGAUGUCAUUGAACCAUCAGAAUUUGUGAAGAUCAUGGAACCCCUC | 0.677 |
| GGAAGUGGAAGAUCCUGUGGAUUCGGAUGGAGAAGUCCUGGGCUUUGAGAACCUCGUCUUUAGCAUUUUUGAGUUUGUCCAUGCCCUACUGGAGAACAGCAAGUUCAAAAGCACCGUUAA | 0.542 |
| UGUGGCUUUGGUGGGGUCUUAAGUUGUGGGCUGACACACACUGCUGUUGUUCCCCUGGACUUAGUAAAGUGCCGCAUGCAGGUGGACCCUCAGAAGUACAAAGGCAUAUUUAAUGGAUUC | 0.0954 |
| UCUUCAGAUAUGAAAAUGACUCAGCUAUUCACCAAAGUUGAAUCAGAAGAUACAAGUAGCCUCUUUGACAAACUUAAGAAGGAACCUGAUGCUUUAACUUUGCUGGCCCCAGCCGCUGGA | 0.228 |
| GAAGAAGCAUGCUUCACUCUCCAGUACUUAAACAAACUGUCCAUGAAACCAGAGCCUCUAUUUAGAAGUGUAGGCAAUACCAUUGAGCCUGUCAUCCUGUUCCAGAAGAUGGGAGUGGGC | 0.297 |
| UCAUGUAGUUCGUUUUUAAUUUCAAGCAAAUCUUAUUGUACUUGAAUGUGCCCUGUUUUGUUAGCACACCUAGACUUGCUGUAACUGUACUCAUGUCCCAGUAUGUACCUUCUUUCUAUG | 1.78 |

Other studies, line by line
| Compound | target | test | setting | measurement | value |
| --- | --- | --- | --- | --- | --- |
| COc1cccc(CNC(=O)c2nc3scc(COCc4ccc(C(=O)O)cc4)c3c(=O)[nH]2)c1 | Alpha-2A adrenergic receptor (ADRA2A, Homo sapiens, UniProt P08913) | binding, radioligand binding | 10 µM | inhibition | 17.2% |
